Measured values from different studies.
Numbered parts are unrelated; each lists some results of a single study. Changes are numbered by the printed parent chain.

Series 1
Target: CREBL2, bZIP domain (human)
Method: DHFR protein complementation
Sample: yeast
Setting: single substitutions, most at no-binding floor
Baseline: wild-type JUN-FOS pair
Direction: higher = stronger binding
Starting sequence: JUN, bZIP domain (human); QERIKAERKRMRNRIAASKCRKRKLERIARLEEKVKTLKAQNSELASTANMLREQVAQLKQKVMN; partner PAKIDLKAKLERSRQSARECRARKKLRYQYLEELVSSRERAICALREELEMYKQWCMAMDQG
`R30E` gave a binding fitness of -1.4 natural log.
`K39H` gave a binding fitness of -1.57 natural log.
With `T37Q` the binding fitness was -1.26 natural log.
For `T48P`, the binding fitness was -1.52 natural log.
`N42H` has a binding fitness of -1.41 natural log.
`I28A` has a binding fitness of -1.28 natural log.
With `L45D` the binding fitness was -1.53 natural log.

Series 2
Target: RNA binding protein fox-1 homolog 2, RRM domain, GST-SBP tag (RBFOX2, Homo sapiens, UniProt O43251-10, residues 100-194)
Method: RNA Bind-n-Seq
Molecule type: RNA
Sample: in vitro
Tested at: 365 nM
Setting: natural RNA segment, single round, ends assumed
Baseline: no-protein control
Direction: higher = stronger binding
Shared flanks, not repeated: GGGAGUUCUACAGUCCGACGAUC … UGGAAUUCUCGGGUGCCAA
For `ACAAGGCGUGUGAAGGCUUCCCAGAAGUUCCUGUCCACAUUGCCUCCGCCCACCGACGCCAUGGGCACACUGCUCCCUCCUCCUCCUCCAGCUACUUUGUGUUGAACACA`, “RBNS enrichment (R)” read 0.552.
`UGGAGCUUUUAUACACUACAUUUCUUUUUUAUUAUUAUGAAGAAUGGGAUACCUCCAGGUUCCAGUAAAAUUCUUCUGACCGAAACCAAUGUGGGUGUUAGAAAAAUUAC`: “RBNS enrichment (R)” 0.57.
`ACAGGUUGAUGCAAGAGGUGGAAAUGUUCUCCAUAUCAAGAUGUGGCCCAAGGGGUUAAGUGGGAACAAUCAUUAUACGGACUCUUCAGAUUUACAGAGAACUUACACUU`: “RBNS enrichment (R)” 0.96.
`ACCAAAUCUCAAAGCAAUGAGAAGCAUUCCUAAAUCCCAAAGUGCCCACAUGGGAAAGAGAUAAAAUGUACAAAUUAGAAAAAUGUGGAUAAACAGUCAAACCUUUAUCC`: “RBNS enrichment (R)” 0.554.
`CCUCAGCCUGUCUGUGGCAGAGCCUGCACCAAAACCCAGAGCUUCUUCCCUCCGUGAGGGCCACGCUGUCACCACAGUCCUCCCAGAUGGGUUUUGGAUUAGCAUCAGUC` — result for “RBNS enrichment (R)”: 0.692.
Under “RBNS enrichment (R)”, `UGGGGACUGUCCCUUAGGAAAGCCAUAAAAGUGAUUCCCAAUACUUUGCAAUUGCUUUUGAUUUUUAGUCCUUUGGAACAAAUGUGUGAUGUUAUGUCUGAUGUUGUGUU` is recorded as 0.706.

Series 3
Target: CCNA2, cyclin fold, Cln2 fusion (human)
Method: yeast growth competition, sequencing
Sample: yeast
Setting: strong parent motif
Baseline: not given
Direction: higher = stronger binding
Starting sequence: ORC1 docking peptide (human); PRARKRLELGNLG; partner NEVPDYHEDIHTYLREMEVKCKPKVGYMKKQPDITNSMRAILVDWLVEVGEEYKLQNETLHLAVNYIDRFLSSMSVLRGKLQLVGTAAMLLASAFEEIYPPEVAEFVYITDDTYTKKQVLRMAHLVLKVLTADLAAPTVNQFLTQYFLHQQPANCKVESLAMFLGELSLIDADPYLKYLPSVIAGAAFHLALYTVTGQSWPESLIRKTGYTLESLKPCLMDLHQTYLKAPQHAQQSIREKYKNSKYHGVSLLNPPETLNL
Under “normalised enrichment score”, `PFARKRLELGNLG [R2F]` is recorded as 2.33.
`PRARKCLELGNLG [R6C]`: “normalised enrichment score” 3.05.
`PTARKRLELGNLG [R2T]`: “normalised enrichment score” 5.44.
For `PRARKWLELGNLG [R6W]`, “normalised enrichment score” read 0.96.
For `PRCRKRLELGNLG [A3C]`, “normalised enrichment score” read 6.37.
`PRARKGLELGNLG [R6G]`: “normalised enrichment score” 1.72.
`PEARKRLELGNLG [R2E]`: “normalised enrichment score” 3.35.

Further values, each from its own experiment
For `PhoQ, residues 284 288 289 292 302 303 AANNSF`, the fold induction was 3.94 (PhoP, residues 12 14 15 18 19 GQAIL (Escherichia coli, UniProt P23836); Sort-seq, refers to: YFP reporter; E. coli; PhoQ-PhoP variant library, with: 10 µM Mg2+; baseline: high Mg2+ state, higher = stronger signaling).

Repeated from above (series 1):
With `T37Q` the binding fitness was -1.26 natural log.
For `T48P`, the binding fitness was -1.52 natural log.
